Assay results from different studies.
Each numbered part is a random draw from the data of one study; scales do not carry over between parts. Positions count from the first letter of the parent shown.

Set 1
Target: CCND2, cyclin fold, Cln2 fusion (human)
Method: yeast growth competition, sequencing
Matrix: yeast
Setting: weak parent motif
Baseline: not given
Direction: higher = stronger binding
Parent: ORC1 docking peptide (human); PRARKRLELGNLG; partner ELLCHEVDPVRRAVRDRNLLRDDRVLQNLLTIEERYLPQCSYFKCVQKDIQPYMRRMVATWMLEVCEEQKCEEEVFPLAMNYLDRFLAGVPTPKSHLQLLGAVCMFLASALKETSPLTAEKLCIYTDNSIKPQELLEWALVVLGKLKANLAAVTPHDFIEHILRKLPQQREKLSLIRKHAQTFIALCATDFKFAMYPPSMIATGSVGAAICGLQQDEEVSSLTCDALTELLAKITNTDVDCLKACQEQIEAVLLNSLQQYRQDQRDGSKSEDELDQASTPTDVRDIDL
Substitution	normalised enrichment score
PRARKRLEQGNLG [L9Q]	0.137
PRARKTLELGNLG [R6T]	0.404
PIARKRLELGNLG [R2I]	0.193
PRARKRLVLGNLG [E8V]	0.234
PRARKRLELINLG [G10I]	0.0234
PRARKRLELGMLG [N11M]	0.453
PRARLRLELGNLG [K5L]	0.0404
PRFRKRLELGNLG [A3F]	-0.169
PRARHRLELGNLG [K5H]	0.198
PRARKRLELSNLG [G10S]	0.186
PRALKRLELGNLG [R4L]	0.0349
PRARKRLELGYLG [N11Y]	0.69
PRARKRLELGNLM [G13M]	0.334
PRARKRLELGNLR [G13R]	-0.0374
PRARKSLELGNLG [R6S]	-0.0684
PRARQRLELGNLG [K5Q]	0.206

Set 2
Target: Histone acetyltransferase KAT6A, both winged helices, GST fusion (KAT6A, Homo sapiens, UniProt Q92794, residues 1-181)
Method: protein binding microarray
Form: double-stranded DNA, one strand shown
Matrix: in vitro
Tested at: not given
Setting: 8-mer, flanks averaged, mean of 2 arrays, mostly near background
Baseline: not given
Direction: higher = stronger binding
Residues (chain): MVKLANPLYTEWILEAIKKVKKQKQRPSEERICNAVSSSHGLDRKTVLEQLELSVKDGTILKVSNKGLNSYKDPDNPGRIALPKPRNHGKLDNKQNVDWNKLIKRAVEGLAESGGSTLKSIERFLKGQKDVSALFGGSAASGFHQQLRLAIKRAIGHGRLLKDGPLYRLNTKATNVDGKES
Sequence	E-score
AAAGACCA	-0.203
AACCCCGA	0.195
CAGCCGCG	0.274
GCTTTTGA	0.0602
AACCTACG	-0.0742
GCGTGCTA	0.0664
AGCGATCG	0.122
CAATCTAA	-0.058
CATGGTGG	-0.0536
ACGCTGTC	0.0713
GCTTCTCA	-0.0921
CGTGCATC	-0.0299
ATTGCTCC	-0.0718
CGGTTATA	0.0895
ACCAACCA	-0.115
AAACCCCT	-0.107
AGCCTATG	-0.113
ATTTCTAA	0.0155
CGCGCATA	0.303
GCAAAAGA	0.0155
CCCAGTCC	-0.229

Set 3
Target: RING finger protein unkempt homolog, zinc fingers 1-6, GST-SBP tag (UNK, Homo sapiens, UniProt Q9C0B0, residues 30-357)
Method: RNA Bind-n-Seq
Form: RNA
Matrix: in vitro
Tested at: not given
Setting: RNA with constant flanks, ends assumed
Baseline: input RNA pool
Direction: higher = stronger binding
Shared flanks, not repeated: GGGAGUUCUACAGUCCGACGAUC … CAACAGAGGAUUGAGCAUCA
Target sequence (chain): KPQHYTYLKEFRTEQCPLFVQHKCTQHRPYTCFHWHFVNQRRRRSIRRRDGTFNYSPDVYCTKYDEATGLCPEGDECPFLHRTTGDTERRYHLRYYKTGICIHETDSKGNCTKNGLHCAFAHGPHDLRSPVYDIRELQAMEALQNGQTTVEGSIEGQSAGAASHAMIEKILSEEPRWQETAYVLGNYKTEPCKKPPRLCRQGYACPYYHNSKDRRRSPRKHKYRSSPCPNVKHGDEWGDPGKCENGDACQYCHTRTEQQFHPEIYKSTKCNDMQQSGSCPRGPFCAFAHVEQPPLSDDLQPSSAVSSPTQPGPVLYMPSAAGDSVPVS
Sequence	bound/input enrichment
AAUGAAGUGGUUCAAUCUGGAAGAAAGACUAAGCCCAUUAUUCCAGAGAUGUGUUUUAUUUACCGUGAAGAAAAUGUAGACUAUUCCCCCCCAAAUGCCUUCCUUGAAGAAGAUGGAACA	0.205 ratio
UGAAUAUUAUACUUCUUUAUUCACAGUAUCUGUGUCUCCUGCACCCUUUGGUGUUGCAAUUUCCGAUAUGUGAAAGUAGAUGUUAGCAGGGUUCUCUCCCUAUUUAAAAAAAAUACAUUA	2.71 ratio
UCCCUCGCCUGUGGUAAACCAACACAGCGGGUCCUCACAAAAGAACCCAAGUCCAAGGAGACCGAAAGUGGCCACAUAUUUACAGUUAAUGAUCAAUUCACAUCUAAACUACACAGAGUC	0.153 ratio
GCAACAAGUGAAGAAGAAGCUAAAUUUGGUGCCAGACGCUUAGCCCGUAGUCUGCAGAAACCCGGUUUUCAGGUAAUAUUUACAGAUUUUAAGGUUGUUAACGUUCUGGCAGUGUGUAAC	0.317 ratio
UAUGUGCCCAAUGUUCCAGAAGGAUCUGUGAGAAUCAUAGACCAGUCAAGCAAUGUGGAGACCGCAUCUUUUCCAAUUUAUAAAGUGCUUUUCUGUGCACGUGGGCAUGAUGGGACAGCC	0.363 ratio
GAUUAUACAAUUCCCGAUGAGUAUAGAAUCGGACCAUAUCAGCCUAAUGUUCCUGUUGGUACCGACUAUGUGAUACCUAAAACAGGGUUUUACUGUAAGCUGUGUUCACUCUUUUAUACA	0.0777 ratio
GCAGGUAUUCAGUACACAAUGCAGGCAUUAGUUUCUCAGUUAAAAAACAAGGAGAGACAGCCGCUGAUGUUAGGACACUACCCAAUGCCUCAACCGUGGACAAUAUUCGCUCCAUCUUUG	0.0736 ratio
GGCCUGACAAAUUAUGCUGCAGCCUAUUGCACUGGCCUGCUGCUGGCCCGCAGGCUUCUGAACCGGUUUGGCAUGGACAAGAUCUAUGAAGGCCAAGUGGAGGUGAAUGGAGGUGAAUAC	0.238 ratio

Mixed results
Substance	target	assay	system	setting	how to read	endpoint	value
PhoQ, residues 284 288 289 292 302 303 SLKLQV	PhoP, residues 12 14 15 18 19 LQHIR (Escherichia coli, UniProt P23836)	Sort-seq, refers to: YFP reporter	E. coli	PhoQ-PhoP variant library, with: 10 µM Mg2+	baseline: high Mg2+ state, higher = stronger signaling	fold induction	15

Excerpt of the above (set 1):
Substitution	normalised enrichment score
PRARKRLELSNLG [G10S]	0.186
PRARKRLELINLG [G10I]	0.0234
PRARKRLELGNLR [G13R]	-0.0374
PRARKTLELGNLG [R6T]	0.404
